Measurements gathered from unrelated publications.
Parts stem from different laboratories: compare values within a part only. Positions count from the first letter of the parent shown.

Sample 1 — method: protein-binding microarray; molecule type: double-stranded DNA, one strand shown; matrix: in vitro; tested at: 2200 nM top; notes: 60-bp whole probe; together with: salmon DNA 0.4 mg/ml; relative to: random background probes; direction: higher = stronger binding; shared flanks, not repeated: GCCTAGCAC … GTCTTGATTCGCTTGACGCTGCTG
Target: Interferon regulatory factor 7, full length, phosphomimetic (IRF7, Homo sapiens, UniProt Q92985, residues 1-503, S471D/S472D/S475D/S476D/S477D/S483D/S484D/S487D)
Residues (chain): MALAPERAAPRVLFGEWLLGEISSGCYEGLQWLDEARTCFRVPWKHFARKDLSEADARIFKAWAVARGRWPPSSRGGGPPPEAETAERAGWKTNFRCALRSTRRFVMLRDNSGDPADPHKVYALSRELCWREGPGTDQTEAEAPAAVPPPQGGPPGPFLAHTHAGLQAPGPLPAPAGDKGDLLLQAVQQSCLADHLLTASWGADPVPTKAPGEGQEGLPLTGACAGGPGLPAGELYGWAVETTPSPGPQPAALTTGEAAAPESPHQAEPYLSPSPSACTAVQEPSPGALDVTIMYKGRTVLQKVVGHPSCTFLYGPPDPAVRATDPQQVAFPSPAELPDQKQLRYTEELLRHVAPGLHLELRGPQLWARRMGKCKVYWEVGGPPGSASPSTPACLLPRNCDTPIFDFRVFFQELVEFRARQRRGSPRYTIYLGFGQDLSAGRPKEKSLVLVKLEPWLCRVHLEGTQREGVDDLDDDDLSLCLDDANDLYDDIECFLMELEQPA
Strand	fitted relative affinity
TTAGGTTCCGGGACTGGGTTAGTGCTA	-0.284 z-score
GACGGTATCGCCTATCGGGACGTGCTA	-0.0443 z-score
GACGATATCGGGACTGGAGAGGTGCTA	-0.48 z-score
GACGATTCCAGTCTCGAGACGTGCTAG	0.814 z-score
GACGAACTGGGGACTGGAGCCGTGCTA	-0.523 z-score
ATAGAACTGGGGTATCGATTAGTGCTA	0.131 z-score
ATATATATATTGTTAGTGTAGTGCTAG	0.916 z-score
TTAGGTTTCGGGTATAGGTTAGTGCTA	4.3 z-score
CTCACCGCCAACCCAGTTCCGTGCTAG	0.665 z-score
GACAGACTGCTTATCCTGACGTGCTAG	0.53 z-score
GACGATACCGGGTATCGAGACGTGCTA	0.408 z-score
TCAATTTTCCCTCCCTAACTGTGCTAG	2.81 z-score
CCTCCCCTTGCTTTCCAATTGTGCTAG	1.8 z-score
AAGTGTTTCTCAACCAGTTTGTGCTAG	0.817 z-score
TTAGGTTTCGGACTGGGCTAGTGCTAG	3.07 z-score
TTAGATATCAGTCTCGATTCGTGCTAG	1.42 z-score
TTCGAACTGAGTATCGATTAGTGCTAG	0.241 z-score
GACGGTAACGGGTATCGGGACGTGCTA	-0.746 z-score
TTCGATTTCAGTCTCGATTAGTGCTAG	2.15 z-score
GACGGACTGGGTCTCGGGATGTGCTAG	-0.773 z-score
GACGGTACCGACTTTCGGGACGTGCTA	2.42 z-score
TTAGGACTGGGGTTTCGGTAAGTGCTA	0.557 z-score
TTGGGACTGGGGTTTCGGTTAGTGCTA	2.25 z-score
TCACCTCTACCTCCTGGGACTGTGCTA	0.752 z-score
TGTTGGTAATTTTGCTATTTGTGCTAG	1.1 z-score

Sample 2 — method: protein binding microarray; molecule type: double-stranded DNA, one strand shown; matrix: in vitro; tested at: not given; relative to: not given; direction: higher = stronger binding
Target: Histone acetyltransferase KAT6A, winged helix 2, GST fusion (KAT6A, Homo sapiens, UniProt Q92794, residues 85-181)
Notes: 8-mer, flanks averaged, mean of 2 arrays, mostly near background
Construct (chain): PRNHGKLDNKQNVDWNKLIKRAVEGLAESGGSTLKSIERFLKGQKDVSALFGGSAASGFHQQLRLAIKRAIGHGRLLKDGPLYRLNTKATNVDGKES
Strand	E-score
AGGTCTAC	-0.0763
ATAGGTAC	-0.26
ACCCCAAC	-0.0237
GCCTTTCC	0.136
GACCGTGC	0.0104
GTCCAAAC	-0.075
CATTCAGG	-0.0148
GGTATAAA	0.0846
CAGCGGGC	0.068
CTAGCGAG	-0.0234
GACAGTTA	-0.00115
CTGGATTA	-0.0618
CATCTTCG	0.0277
GTACACCA	-0.195
ATATACCA	-0.2
ACTTGCAG	-0.0947
AAATTCTA	0.125
ATAGTTAC	-0.0379
CACACTGA	-0.06
CGGCTCTC	0.118
ACAAGGTG	0.0412

Sample 3 — target: CCNB2, cyclin fold, Cln2 fusion (human); method: yeast growth competition, sequencing; matrix: yeast; notes: weak parent motif; relative to: not given; direction: higher = stronger binding
Parent: RB1 docking peptide (human); PKPLKKLRFDIEG; partner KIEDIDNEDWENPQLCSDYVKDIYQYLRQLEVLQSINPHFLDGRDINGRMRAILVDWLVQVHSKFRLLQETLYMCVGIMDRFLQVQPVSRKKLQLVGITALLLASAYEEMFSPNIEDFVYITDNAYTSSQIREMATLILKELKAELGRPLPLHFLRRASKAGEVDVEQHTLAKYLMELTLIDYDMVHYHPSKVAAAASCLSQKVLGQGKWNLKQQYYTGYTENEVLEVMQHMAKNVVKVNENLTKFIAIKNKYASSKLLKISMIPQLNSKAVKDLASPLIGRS
Variant	normalised enrichment score
PKPLKKLRFDILG [E12L]	0.559
PKPLEKLRFDIEG [K5E]	-0.285
PKPLKKLRFDIHG [E12H]	-0.133
PKQLKKLRFDIEG [P3Q]	-0.0965
PKPLKKLRFDIRG [E12R]	0.0534
PKPLKKYRFDIEG [L7Y]	0.0623
PKPLKKLRFDVEG [I11V]	0.0837
PKPLKKLRFDNEG [I11N]	0.724
PTPLKKLRFDIEG [K2T]	0.215
WKPLKKLRFDIEG [P1W]	1.07
PKPLKILRFDIEG [K6I]	0.148
PKPLKQLRFDIEG [K6Q]	-0.095
PKPLKKLRFDMEG [I11M]	0.256
PKPLKKLRFDIEL [G13L]	0.379
PKSLKKLRFDIEG [P3S]	0.725
PKPLKKLRFDPEG [I11P]	0.207

Sample 4 — method: DHFR PCA, deep sequencing; matrix: yeast; together with: (+)-ABA 4.8 µM; relative to: wild-type fitted maximum; direction: higher = stronger binding
Target: ABI1, truncated, D143A, DHFR fusion (Arabidopsis thaliana)
Notes: methotrexate growth selection, single substitutions
Parent: PYL1, truncated, DHFR fusion (Arabidopsis thaliana); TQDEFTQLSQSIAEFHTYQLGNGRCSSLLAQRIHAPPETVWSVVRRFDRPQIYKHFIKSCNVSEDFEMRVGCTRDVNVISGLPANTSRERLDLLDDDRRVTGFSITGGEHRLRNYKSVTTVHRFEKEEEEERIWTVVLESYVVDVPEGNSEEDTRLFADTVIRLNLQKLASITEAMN
Variant	relative binding score [%]
D159G	10.6
T86E	32
P36S	69.9
E130Q	76.2
S11K	51.4
Y53L	-4.5
H55R	85.9
L91M	43.6
S63P	78.4
A84P	13.4
E129L	62.7
Q2W	66.4
M68N	56.1
L20F	56.1
L156D	36.6
T135G	-6.79
T120R	5.71
E139Y	73.9
V118C	69.1
P36F	25.4

Sample 5 — method: competition protein-binding microarray; molecule type: double-stranded DNA, one strand shown; matrix: in vitro; tested at: 2 µM; together with: Cbf1 competitor, 0.05 µM; direction: higher = stronger binding
Target: Phosphate system positive regulatory protein PHO4, full length, GST-tagged (PHO4, Saccharomyces cerevisiae, UniProt P07270, residues 1-312)
Notes: whole 60-bp probe, lowest competitor level
Residues (chain): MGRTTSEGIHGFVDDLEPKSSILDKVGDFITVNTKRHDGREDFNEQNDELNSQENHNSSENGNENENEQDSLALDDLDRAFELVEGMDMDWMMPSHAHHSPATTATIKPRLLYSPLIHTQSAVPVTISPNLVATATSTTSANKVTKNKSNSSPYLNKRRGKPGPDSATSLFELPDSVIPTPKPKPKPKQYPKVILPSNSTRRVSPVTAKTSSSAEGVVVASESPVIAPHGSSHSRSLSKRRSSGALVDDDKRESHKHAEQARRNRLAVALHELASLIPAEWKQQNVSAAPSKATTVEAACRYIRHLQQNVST
Strand	fluorescence intensity
CTTCTGTAAATTTGTCACGTGGGTGGACGCGCCCCGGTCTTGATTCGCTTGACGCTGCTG	16900 a.u.
CTTGCCAGAGGCATCTGCTAAGGCGTCCCACAAATCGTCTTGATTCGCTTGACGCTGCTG	3200 a.u.
TTTTTCATCGACCGTCACGTGACGGGCTGAGGTTAAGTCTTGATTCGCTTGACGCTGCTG	12300 a.u.
AGCAGCATTATCCATGACATGACAAGGATCTACCGAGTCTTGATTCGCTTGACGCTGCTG	3940 a.u.
CTCTGCCCTGCTTAGCACGTAGAAGGTCTCCGGCTGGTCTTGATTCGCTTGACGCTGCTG	6300 a.u.
TCGAGGTTCTCTTTCCCCGTGCCAGACTTGGCTTGAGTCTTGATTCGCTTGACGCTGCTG	8180 a.u.
CAGGGCATAAAGAGGCACATGCGGCGTTTGTAGCCGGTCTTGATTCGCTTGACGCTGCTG	10900 a.u.
CAGTCTACCAAGGTGAACGTGTTGACTGTAAAGAAAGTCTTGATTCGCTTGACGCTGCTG	10700 a.u.
GTCTAAATTATTCCGCACGTTTTTCGGTGTGGTACAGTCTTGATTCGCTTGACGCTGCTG	14000 a.u.
CGTCCTAGTGATTTACACGTGTTTTCCATGAGGAAGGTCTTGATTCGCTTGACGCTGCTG	17700 a.u.
TCCCCATGAACTCAGCATGTGCTACTCCAGTTAATGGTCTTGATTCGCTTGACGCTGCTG	10300 a.u.
CGTCCTAGTGATTGGGCCGTGGGTGCCATGAGGAAGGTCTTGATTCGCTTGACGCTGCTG	7730 a.u.
CGGGGTTAAGTTTGTCACAAGACTTGCTTGCAGCAGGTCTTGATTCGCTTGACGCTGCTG	4250 a.u.
GCTTGTGAACAGCGTCACAGATCCAGTTGTAACGAGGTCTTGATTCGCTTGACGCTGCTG	3250 a.u.
TAGAAATTCCTCCTTCACGTTCTGTTGAAGGGAGGAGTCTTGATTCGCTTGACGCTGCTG	9150 a.u.
AAGCTAAAGCTCCGTCACGTGTAGGTGGATACTGTTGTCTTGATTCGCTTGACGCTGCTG	14200 a.u.
CTTTCCCGATCTTGTCACTAGACTTTAGCACATTTGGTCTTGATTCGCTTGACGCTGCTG	3740 a.u.

Sample 6 — method: RNAcompete; molecule type: RNA; matrix: in vitro; tested at: 20 nM; notes: 7-mer, probes averaged, single round; relative to: mean of 7-mers; direction: higher = stronger binding
Target: PABPC1L2, full length, GST fusion (mouse, UniProt A0ABA7IW68)
Residues (chain): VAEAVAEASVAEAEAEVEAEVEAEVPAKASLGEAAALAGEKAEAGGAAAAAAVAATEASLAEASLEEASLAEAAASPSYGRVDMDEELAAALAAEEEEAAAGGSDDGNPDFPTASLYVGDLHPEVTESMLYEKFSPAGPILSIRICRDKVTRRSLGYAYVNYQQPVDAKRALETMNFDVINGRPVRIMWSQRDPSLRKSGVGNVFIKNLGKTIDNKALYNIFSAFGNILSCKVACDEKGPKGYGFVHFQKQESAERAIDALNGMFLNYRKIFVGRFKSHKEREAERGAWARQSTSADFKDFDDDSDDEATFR
Strand	7-mer Z-score
AUGGGGA	0.437
CUAUGCG	-0.0917
CUGCGAG	-0.0246
AGAGAAU	0.0279
CGUCAAC	-0.222
CAAGAUA	0.037
UACUCAG	-0.135
ACUAAAA	5.05
CGUGCAU	-0.0772
GCGCUGU	-0.266
ACUAAAU	0.693
AUUAGGU	0.0986
AUAUCUC	-0.226
AGGGUUG	0.0605
CAGGCGG	0.16
AUUCAAC	-0.191
AGCGGCC	0.00254
UGAACCU	-0.213
GCGGGCU	0.066
UUGUCGU	-0.394
ACACUAC	-0.128
UUUACCU	-0.186
ACGCACA	-0.106
GCGCUUU	-0.226
CGGUCGG	-0.186
